Assay results collected from several papers.
Numbered parts are unrelated; each lists some results of a single study.

Study 1
Compound: COc1ccc(-c2c(Nc3ccccn3)[nH]c3c(C4=CCCCC4)c(-c4ccccc4)nn3c2=O)cc1
Matrix: plasma
Route: oral
Endpoint: plasma concentration, geometric mean
LC-MS/MS; human; 200 mg twice daily, 8 h, single dose: 1280 ng/mL
cancer patients; 400 mg, 6 h post-dose, single dose: 1110 ng/mL
cancer patients; 50 mg, 6 h post-dose, single dose: 394 ng/mL
cancer patients; 200 mg, 8 h post-dose, single dose: 1260 ng/mL
cancer patients; 400 mg, 2 h post-dose, single dose: 698 ng/mL
cancer patients; 100 mg, 72 h post-dose, single dose: 151 ng/mL
cancer patients; 100 mg, 8 h post-dose, single dose: 951 ng/mL
LC-MS/MS; human; 50 mg once daily, 2 h, cycle 1: 1300 ng/mL

Study 2
Target: Ribosomal protein S6 kinase beta-1 (RPS6KB1, Homo sapiens, UniProt P23443)
Sequence of UniProt P23443 (whole entry, looked up): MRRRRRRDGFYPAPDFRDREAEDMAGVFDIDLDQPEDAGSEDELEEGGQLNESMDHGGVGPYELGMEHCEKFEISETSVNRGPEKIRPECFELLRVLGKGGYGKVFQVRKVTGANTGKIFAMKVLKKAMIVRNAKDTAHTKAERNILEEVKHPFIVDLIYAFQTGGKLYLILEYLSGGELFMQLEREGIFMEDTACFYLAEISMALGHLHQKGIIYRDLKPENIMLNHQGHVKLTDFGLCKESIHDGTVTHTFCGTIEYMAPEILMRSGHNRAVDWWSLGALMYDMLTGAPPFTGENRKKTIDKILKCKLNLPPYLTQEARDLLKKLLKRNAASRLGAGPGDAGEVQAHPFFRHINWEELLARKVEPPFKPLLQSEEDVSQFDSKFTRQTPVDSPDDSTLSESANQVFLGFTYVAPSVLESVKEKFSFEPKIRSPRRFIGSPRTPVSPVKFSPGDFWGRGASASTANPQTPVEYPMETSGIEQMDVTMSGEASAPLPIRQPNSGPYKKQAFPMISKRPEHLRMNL
Read-out: enzyme activity
Mode: inhibitor
Tested at: 0.5 µM
Relative to: control
Endpoint: remaining activity
N#Cc1c(NC(=O)c2cccc3ccccc23)sc2c1CCCC2: 105%
Cn1nc2c3c(cccc31)C(=O)c1ccccc1-2: 96.3%
CN(C)C[C@H]1CCn2c(c(C3=C(c4cn(C)c5ccccc45)C(=O)NC3=O)c3ccccc32)C1: 20%
COc1cc2c(cc1OC)-c1[nH]nc(Nc3cccc(F)c3)c1C2: 99.1%
COc1cc2ncnc(Nc3cccc(Cl)c3)c2cc1OC: 88.5%
CCOc1nc(NC(=O)Cc2cc(OC)ccc2OC)cc(N)c1C#N: 104%
c1ccc(-c2cnc(Nc3ccc(OCCN4CCCC4)cc3)s2)cc1: 92.3%
CN([C@@H](Cc1ccc(OS(=O)(=O)c2cccc3cnccc23)cc1)C(=O)N1CCN(c2ccccc2)CC1)S(=O)(=O)c1cccc2cnccc12: 100%
O=C(NC(NC(=S)Nc1ccc(F)c([N+](=O)[O-])c1)C(Cl)(Cl)Cl)C(c1ccccc1)c1ccccc1 (stereo not drawn): 91.9%
CCN(CC)CCNC(=O)c1c(C)[nH]c(/C=C2\C(=O)Nc3ccc(F)cc32)c1C: 42.3%
COc1cc2ncnc(Nc3ccc(O)c(Br)c3)c2cc1OC: 82.1%
Cc1nc2cc3nc(-c4cccs4)cnc3cc2n1C: 95%

Study 3
Cell line: Huh-7
Tested at: 10 µM
Time: 24 h
Endpoint: viability
CC(=O)NS(=O)(=O)c1ccc(NC(=O)c2ccccc2C(=O)O)cc1: 100%
CC(=O)[C@H]1CC[C@H]2[C@@H]3CCC4=CC(=O)CC[C@]4(C)[C@H]3CC[C@]12C: 81.3%
CCN(CC)C(=O)c1cccc(C)c1: 98.3%
COC(=O)C1=C(C)NC(C)=C(C(=O)OCC(C)C)C1c1ccccc1[N+](=O)[O-] (stereo not drawn): 85%
CO/N=C(\C(=O)N[C@@H]1C(=O)N2C(C(=O)O)=C(COC(C)=O)CS[C@H]12)c1csc(N)n1: 104%
O=C1CN(/N=C/c2ccc([N+](=O)[O-])o2)C(=O)N1: 101%
CN(C)CCCN1c2ccccc2Sc2ccccc21: 101%
CC(=O)/N=c1/sc(S(N)(=O)=O)nn1C: 98.3%
c1ccc(CN(CC2=NCCN2)c2ccccc2)cc1: 91.7%

Mixed results
Cn1cncc1[C@@](O)(COc1ccc(C#N)cc1-c1ccc(OC(F)(F)F)cc1)c1ccc(C#N)cc1 — cells with altered tubulin phenotype (HEK293T; high-content imaging; 10 µM, 24 h): 95%

Repeated from above (study 2):
N#Cc1c(NC(=O)c2cccc3ccccc23)sc2c1CCCC2: 105%
Cn1nc2c3c(cccc31)C(=O)c1ccccc1-2: 96.3%
CN(C)C[C@H]1CCn2c(c(C3=C(c4cn(C)c5ccccc45)C(=O)NC3=O)c3ccccc32)C1: 20%
